Measurements collected from several papers.
Numbered parts are unrelated; each lists some results of a single study.

Set 1
Target: Centromere-binding protein 1, full length, N-terminal tag (CBF1, Saccharomyces cerevisiae, UniProt P17106, residues 1-351)
Chain of UniProt P17106 (whole entry, looked up): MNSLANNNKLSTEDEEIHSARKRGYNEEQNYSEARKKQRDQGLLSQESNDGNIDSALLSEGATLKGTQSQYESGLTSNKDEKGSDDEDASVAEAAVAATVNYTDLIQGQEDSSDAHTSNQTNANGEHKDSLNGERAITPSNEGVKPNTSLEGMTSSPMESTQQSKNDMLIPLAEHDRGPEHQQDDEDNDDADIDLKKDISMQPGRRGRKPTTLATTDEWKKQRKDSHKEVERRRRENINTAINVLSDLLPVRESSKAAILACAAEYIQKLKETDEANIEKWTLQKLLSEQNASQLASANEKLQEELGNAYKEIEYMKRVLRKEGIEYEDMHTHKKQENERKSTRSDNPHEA
Technique: protein-binding microarray
Form: double-stranded DNA, one strand shown
Medium: in vitro
Tested at: 0.8 µM
Notes: whole 60-bp probe, no competitor
Reading: higher = stronger binding
Constant ends, left off below: … GTCTTGATTCGCTTGACGCTGCTG
Oligonucleotide	fluorescence intensity
CCTAACTACTATATTCAGGAGATATAGCTTCGTACA	537 a.u.
TGTACGAAGCTATGAAACGTGCATATAGTAGTTAGG	663 a.u.
GAACAATTAAGGGCGCACGTAGTCACTTGCGAATAG	535 a.u.
CTAAGTAACGTAAGTCACGTGCTTTCTAACCATTTC	21500 a.u.
CCTAACTACTATAATCTCCTGAGATAGCTTCGTACA	526 a.u.
TGTACGAAGCTATTGGTGGTGACTATAGTAGTTAGG	536 a.u.
TGTACGAAGCTATTCAACGTGGGTATAGTAGTTAGG	556 a.u.
CTAGGCAGCTCATTACTCGTGACGCAGCTTTAATTC	1050 a.u.
GAATTTTGAGTTTTGCGTGCGTTATCTACTGGGTAG	479 a.u.
GAAAATCACATTTCAAATATATCACGTGTTATATAG	17400 a.u.
CCTAACTACTATAGTGATTTTTCATAGCTTCGTACA	518 a.u.
CTAATTAACTATTTTAGCGTGACTGACTGATAATTC	681 a.u.
CTAGTTTCAGCAGCTCTGATGTAGATACACGTATTC	518 a.u.
GAAATAGTCCAAACCGTGACAACTATGCAGGGATAG	658 a.u.
CTAATGTGAATAGATCATGAGACGCGAAGCCCTTTC	608 a.u.
CTAATAGCCAGACGTGATTCCCCTAAACTCAGGTTC	548 a.u.
GAACGGATACCCGCACAGCACGTGTTTTTCCGTTAG	7880 a.u.
GAAGGGCCCCTTAAACACGTTTCATTAGTGTTTTAG	528 a.u.
GAACAGTATCTACTGCACGTTCTTCCGTAAGTATAG	777 a.u.
GAACACGGCCACAGTGGCACGTGACATTTACTCTAG	20700 a.u.
GAACGCTTAAACTGTGACCAAATATGGATTACGTAG	567 a.u.

Set 2
Target: Ras GTPase-activating protein-binding protein 1, C-terminal RGG region (G3BP1, Homo sapiens, UniProt Q13283)
Chain of UniProt Q13283 (whole entry, looked up): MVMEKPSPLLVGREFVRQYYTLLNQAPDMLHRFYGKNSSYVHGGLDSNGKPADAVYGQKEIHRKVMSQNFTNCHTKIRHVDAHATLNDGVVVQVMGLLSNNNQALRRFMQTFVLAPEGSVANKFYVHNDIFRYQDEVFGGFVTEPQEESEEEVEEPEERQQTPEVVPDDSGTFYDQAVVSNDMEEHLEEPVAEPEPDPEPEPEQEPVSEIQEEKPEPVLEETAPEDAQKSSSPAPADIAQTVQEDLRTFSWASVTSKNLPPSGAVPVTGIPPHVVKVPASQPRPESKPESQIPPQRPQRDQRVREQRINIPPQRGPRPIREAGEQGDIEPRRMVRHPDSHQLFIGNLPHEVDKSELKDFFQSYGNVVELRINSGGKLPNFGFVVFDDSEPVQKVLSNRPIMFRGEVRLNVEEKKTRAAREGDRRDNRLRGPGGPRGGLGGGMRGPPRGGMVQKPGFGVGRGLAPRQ
Technique: RNA Bind-n-Seq
Form: RNA
Medium: in vitro
Tested at: 1 µM
Notes: whole 134-nt RNA, ends assumed
Together with: 150 mM KCl
Baseline: input library
Reading: higher = stronger binding
Constant ends, left off below: GGGAGUUCUACAGUCCGACGAUC … UGGAAUUCUCGGGUGUCAAGG
Oligonucleotide	log2 enrichment
UAACUUUAGAGGAGGAUCUGAUGGAUAUGGCAGUGGACGUGGAUUUGGGGAUGGCCAUAAUGGGUAUGGAGGAGGACCUGGAGGUGGCAA	-0.816
AGUCCUGUGCUACACAUCGUAUGUACCGAAUCGGGUUUUGGGGUUUUGGGGUUUUGGGAAAGUAUUAUGUUACGCCGUUCGGAUCUGCAC	0.702
UAACUUUAGAGGAGGAUCUGAUGGAUAUGGCAGUGGACGUGGAUUUGGGGAUGGCUAUAAUGGGUCUGGAGGAGGACCUGGAGGUGGCAA	-0.921
UCCUGUGCUACACAUCGUAUGUACCGAAUCAAAUUUUUUUAAACCCCCCCAAACCCAAAAAAGUAUUAUGUUACGCCGUUCGGAUCUGCA	-0.675
UCCUGUGCUACACAUCGUAUGUACCGAAUCGGGGUUUGGGGUUUGGGGAAAAAAAGGGGAAAGUAUUAUGUUACGCCGUUCGGAUCUGCA	1.78
UGGCCCUGGUGGCAUGCGGGGAGGAAGAGGUGGCCUCAUGGAUCGUGGUGGUCCCGGUGGAGUGUUCAGAGGUGGCCGUGGUGGAGACAG	1.86
GUCCUGUGCUACACAUCGUAUGUACCGAAUCGGGUUUUUUUGGGAAAGGGAAAAAGGGAAAGUAUUAUGUUACGCCGUUCGGAUCUGCAC	-0.695
GUCCUGUGCUACACAUCGUAUGUACCGAAUCGGGAGGGUUUUUUUGGGAAAAAAAGGGAAAGUAUUAUGUUACGCCGUUCGGAUCUGCAC	-0.706
UGUGCUACACAUCGUAUGUACCGAAUCGGGGAAAAAAAGGGAAAAAAAGGGAAAAAAAGGGGAAAGUAUUAUGUUACGCCGUUCGGAUCU	-0.65
CUGUGCUACACAUCGUAUGUACCGAAUCGGAAAAAAAGGGAAAAAAAGGGGAAAAAAAGGGAAAGUAUUAUGUUACGCCGUUCGGAUCUG	-1.41

Set 3
Target: UBE2H UBC core domain (UniProt P62256)
Chain of UniProt P62256 (whole entry, looked up): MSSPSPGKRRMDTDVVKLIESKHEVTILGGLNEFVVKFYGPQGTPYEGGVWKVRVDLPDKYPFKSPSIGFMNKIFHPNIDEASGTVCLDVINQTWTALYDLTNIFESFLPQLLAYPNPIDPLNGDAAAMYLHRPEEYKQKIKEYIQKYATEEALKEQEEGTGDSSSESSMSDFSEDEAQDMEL
Technique: yeast two-hybrid
Medium: yeast
Notes: mostly zero background
Baseline: not given
Reading: higher = stronger interaction
B1: NHLRC1 RING domain (UniProt Q6VVB1); chain MREAEISLLECKVCFEKFGHRQQRRPRNLSCGHVVCLACVAALAHPRTLALECPFCRRACRGCDTSD
B2: TRIM32 RING domain (UniProt Q13049); chain NLDALREVLECPICMESFTEEQLRPKLLHCGHTICRQCLEKLLASSINGVRCPFCSKITRITSLTQ
B3: ARIH1 RING domain (UniProt Q9Y4X5); chain NTRSSAQDMPCQICYLNYPNSYFTGLECGHKFCMQCWSEYLTTKIMEEGMGQTISCPAHGCDILVDDNTVM
B4: RNF7 RING domain (UniProt Q9UBF6); chain AICRVQVMDACLRCQAENKQEDCVVVWGECNHSFHNCCMSLWVKQNNRCPLCQQDWVVQRIGK
Sequence	lacZ reporter activity
SNNDLASLFECPVCFDYVLPPILQCQSGHLVCSNCRPKLTCCPTCRGPLGSIRNLA (SIAH1 RING domain (UniProt Q8IUQ4))	0
AAQLLEEKLTCAICLGLYQDPVTLPCGHNFCGACIRDWWDRCGKACPECREPFPDGAELR (TRIM65 RING domain (UniProt Q6PJ69))	0
KITELNPHLMCALCGGYFIDATTIVECLHSFCKTCIVRYLETNKYCPMCDVQVHKTRPLL (PCGF2 RING domain (UniProt P35227))	0
B1 (NHLRC1 RING domain)	0
EDVLSKDAGECAICLEELQQGDTIARLPCLCIYHKGCIDEWFEVNRSCPEHPSD (ZNRF2 RING domain (UniProt Q8NHG8))	0
B2 (TRIM32 RING domain)	0
B3 (ARIH1 RING domain)	0
B4 (RNF7 RING domain)	0

Set 4
Target: RING finger protein unkempt homolog, zinc fingers 1-6, SBP tag (UNK, Homo sapiens, UniProt Q9C0B0, residues 30-357)
Chain of UniProt Q9C0B0 (30-357, looked up): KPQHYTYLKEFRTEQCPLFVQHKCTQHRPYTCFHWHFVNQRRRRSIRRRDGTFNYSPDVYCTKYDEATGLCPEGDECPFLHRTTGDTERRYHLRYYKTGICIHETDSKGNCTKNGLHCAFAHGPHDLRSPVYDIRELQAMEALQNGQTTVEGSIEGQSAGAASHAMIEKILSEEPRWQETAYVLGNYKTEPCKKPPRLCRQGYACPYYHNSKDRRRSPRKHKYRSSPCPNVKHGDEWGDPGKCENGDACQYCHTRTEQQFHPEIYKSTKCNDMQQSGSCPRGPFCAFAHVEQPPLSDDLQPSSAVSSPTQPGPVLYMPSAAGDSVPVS
Technique: RNA Bind-n-Seq
Form: RNA
Medium: in vitro
Tested at: 100 nM
Notes: RNA with constant flanks, vertebrate orthologous sites, ends assumed
Baseline: input RNA pool
Reading: higher = stronger binding
Constant ends, left off below: GGGAGUUCUACAGUCCGACGAUC … CAACAGAGGAUUGAGCAUCA
Oligonucleotide	bound/input enrichment [ratio]
GUGUUGGUGCAGAGCAUUCUGUACCACUGCUCAUCAUCCCUUCUUCAUACCACCUCUCUCUAGUUGUAGGAAUUUAAUAUUUUUAAAAGUUUUACAUUGCUGUAUAUUCAAAAUUGUUUA	1.5
UAGUACUUAAGCCAACAACAGUUCUAAAAUGCUAUUUAUUUGUGUCUGUAAGUUUGUACAUAGUAAUACCAACCUCAUAUUGUUGCGGAUUUUUGUUUUCACGAGUUUGAGUUUGGUUUU	0.507
UUUUGUGAGGAGUGGGAAAGAUGAGAUUCUUCUCCCCCCGAGUAAAACUGACAAUUUCCUUUUAGUUCUAUCCUUAAAAACAAAGAUGCCCUUUUUUCUUAAUUGUGUGACGCCACUAUC	0.563
CCUACGUAAAAUAUUGGAUGCAGUGUAUAAAAAGGCAGUGACUUCAGCUUUAUAAAUAUAUGGCUAGUGUUAGAGUUAUCUACAUUUAUUUAAUCUUUUAGAUUGGAUUGUUUGCUAUUG	0.549
CCUGGAGAUCCCGUUGUCACUGAGAACCACAAAUCUGACUUUUACAUUUGGUCUCAGUUUAGGUUCUUACCCUGUUUUUUUUGUUGUUUUUUUUUUUGUUUUGUUUUUUUGUUUUUUUUU	2.35
GUGUUGGUGCAGAGCGCUCUGUACCAGUGCUCAUCAUCCCUUCUUCAUACCAACUGUCCCUAGUUAUAGGAAUUUAAUAUUUUUAAAAGUUUUACAUUGCUGUAUAUUCAAAGAUUUGUU	0.91

Set 5
Target: TAR DNA-binding protein 43, full length, His tag (TARDBP, Homo sapiens, UniProt Q13148, residues 1-414)
Technique: RNA Bind-n-Seq
Form: RNA
Medium: in vitro
Tested at: 20 nM
Notes: 6-mer, flanks averaged, single round
Together with: 150 mM KCl
Baseline: input library
Reading: higher = stronger binding
Oligonucleotide	6-mer enrichment (R)
AGGCUA	0.786
AGGUGG	3.53
AACCCU	0.614
AUAGAC	0.637
AAUACG	0.698
CAGGGA	2.25
ACUGAG	0.919
CCAGAG	1.03
AUGAUG	0.914
GGAAUU	0.872
CACACC	0.672
GUACCU	0.643
GCCCAC	0.708

Set 6
Target: Histone acetyltransferase KAT6A, winged helix 2, GST fusion (KAT6A, Homo sapiens, UniProt Q92794, residues 85-181)
Technique: protein binding microarray
Form: double-stranded DNA, one strand shown
Medium: in vitro
Tested at: not given
Notes: 8-mer, flanks averaged, mean of 2 arrays, mostly near background
Baseline: not given
Reading: higher = stronger binding
Residues (chain): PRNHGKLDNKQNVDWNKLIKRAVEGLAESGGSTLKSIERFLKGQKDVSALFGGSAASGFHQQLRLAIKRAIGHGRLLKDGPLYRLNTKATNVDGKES
Oligonucleotide	E-score
CCCCTCTA	-0.0886
ACCGGGAG	-0.108
ACAGCTTA	-0.11
GCGCGATA	0.175
GCGCCACC	0.0861
TGTTCAAA	-0.0284
CGCGCACG	0.0875
AAGCTGAC	0.111
CGACATAC	-0.115
GTTCGCAA	0.173
TAGAACGA	0.0207
AGCCAGCC	-0.154

Set 7
Target: Sal-like protein 4, full length isoform A (SALL4, Homo sapiens, UniProt Q9UJQ4, residues 1-1053)
Chain of UniProt Q9UJQ4 (whole entry, looked up): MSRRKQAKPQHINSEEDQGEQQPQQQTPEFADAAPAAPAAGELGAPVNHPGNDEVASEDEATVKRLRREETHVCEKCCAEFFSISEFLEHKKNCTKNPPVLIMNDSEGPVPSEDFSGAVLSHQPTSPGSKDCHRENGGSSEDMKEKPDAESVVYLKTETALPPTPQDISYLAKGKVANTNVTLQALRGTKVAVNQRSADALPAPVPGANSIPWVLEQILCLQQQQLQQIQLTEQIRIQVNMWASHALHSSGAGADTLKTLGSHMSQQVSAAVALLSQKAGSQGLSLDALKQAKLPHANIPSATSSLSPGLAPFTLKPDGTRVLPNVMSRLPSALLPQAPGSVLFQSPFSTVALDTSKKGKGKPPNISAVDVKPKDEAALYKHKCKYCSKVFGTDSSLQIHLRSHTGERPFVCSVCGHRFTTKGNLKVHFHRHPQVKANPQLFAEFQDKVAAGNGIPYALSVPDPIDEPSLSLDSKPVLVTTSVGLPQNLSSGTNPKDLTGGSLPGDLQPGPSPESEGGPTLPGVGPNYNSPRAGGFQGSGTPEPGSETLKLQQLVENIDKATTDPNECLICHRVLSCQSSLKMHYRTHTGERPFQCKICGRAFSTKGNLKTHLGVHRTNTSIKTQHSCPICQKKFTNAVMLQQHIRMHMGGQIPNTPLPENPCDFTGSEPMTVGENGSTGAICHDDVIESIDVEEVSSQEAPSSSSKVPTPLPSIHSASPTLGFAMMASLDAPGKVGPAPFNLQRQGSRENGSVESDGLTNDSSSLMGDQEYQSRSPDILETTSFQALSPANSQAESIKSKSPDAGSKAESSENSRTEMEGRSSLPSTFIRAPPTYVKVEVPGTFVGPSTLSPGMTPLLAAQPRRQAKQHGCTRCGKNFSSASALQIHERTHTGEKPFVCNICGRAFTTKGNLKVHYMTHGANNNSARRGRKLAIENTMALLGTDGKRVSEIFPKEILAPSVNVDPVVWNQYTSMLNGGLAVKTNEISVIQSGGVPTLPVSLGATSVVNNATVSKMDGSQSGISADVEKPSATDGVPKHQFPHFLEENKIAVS
Technique: universal PBM
Form: double-stranded DNA, one strand shown
Medium: in vitro
Tested at: 600 nM
Notes: 8-mer, flanks averaged, mean of replicates
Reading: higher = stronger binding
Oligonucleotide	E-score
ACTGTGCT	-0.0372
ACGTTTGC	-0.0786
ACATGCGA	0.0888
GGGCGGTA	-0.278
TATGACGA	0.258
CGCCCTTA	-0.126
TGCTCGAA	-0.0179
ACGACGAC	-0.0772
GGGAAGCA	-0.0823
CAGGGTAA	0.0519
GACCTAAA	-0.00805
CCAAAGGC	-0.194
TCCGTGCA	-0.0576
GATCTCTA	0.0418
AAGTTATA	0.376
AGATCTAG	-0.0101
CCCTCTTA	-0.0006

Repeated from above (set 1):
Oligonucleotide	fluorescence intensity
CTAGTTTCAGCAGCTCTGATGTAGATACACGTATTC	518 a.u.
TGTACGAAGCTATGAAACGTGCATATAGTAGTTAGG	663 a.u.
CTAGGCAGCTCATTACTCGTGACGCAGCTTTAATTC	1050 a.u.
CTAAGTAACGTAAGTCACGTGCTTTCTAACCATTTC	21500 a.u.
CCTAACTACTATAGTGATTTTTCATAGCTTCGTACA	518 a.u.
CTAATAGCCAGACGTGATTCCCCTAAACTCAGGTTC	548 a.u.
GAATTTTGAGTTTTGCGTGCGTTATCTACTGGGTAG	479 a.u.
